Assay results collected from several papers.
Numbered parts are unrelated; each lists some results of a single study. Changes are numbered by the printed parent chain.
UniProt P93022, sequence (whole entry, looked up): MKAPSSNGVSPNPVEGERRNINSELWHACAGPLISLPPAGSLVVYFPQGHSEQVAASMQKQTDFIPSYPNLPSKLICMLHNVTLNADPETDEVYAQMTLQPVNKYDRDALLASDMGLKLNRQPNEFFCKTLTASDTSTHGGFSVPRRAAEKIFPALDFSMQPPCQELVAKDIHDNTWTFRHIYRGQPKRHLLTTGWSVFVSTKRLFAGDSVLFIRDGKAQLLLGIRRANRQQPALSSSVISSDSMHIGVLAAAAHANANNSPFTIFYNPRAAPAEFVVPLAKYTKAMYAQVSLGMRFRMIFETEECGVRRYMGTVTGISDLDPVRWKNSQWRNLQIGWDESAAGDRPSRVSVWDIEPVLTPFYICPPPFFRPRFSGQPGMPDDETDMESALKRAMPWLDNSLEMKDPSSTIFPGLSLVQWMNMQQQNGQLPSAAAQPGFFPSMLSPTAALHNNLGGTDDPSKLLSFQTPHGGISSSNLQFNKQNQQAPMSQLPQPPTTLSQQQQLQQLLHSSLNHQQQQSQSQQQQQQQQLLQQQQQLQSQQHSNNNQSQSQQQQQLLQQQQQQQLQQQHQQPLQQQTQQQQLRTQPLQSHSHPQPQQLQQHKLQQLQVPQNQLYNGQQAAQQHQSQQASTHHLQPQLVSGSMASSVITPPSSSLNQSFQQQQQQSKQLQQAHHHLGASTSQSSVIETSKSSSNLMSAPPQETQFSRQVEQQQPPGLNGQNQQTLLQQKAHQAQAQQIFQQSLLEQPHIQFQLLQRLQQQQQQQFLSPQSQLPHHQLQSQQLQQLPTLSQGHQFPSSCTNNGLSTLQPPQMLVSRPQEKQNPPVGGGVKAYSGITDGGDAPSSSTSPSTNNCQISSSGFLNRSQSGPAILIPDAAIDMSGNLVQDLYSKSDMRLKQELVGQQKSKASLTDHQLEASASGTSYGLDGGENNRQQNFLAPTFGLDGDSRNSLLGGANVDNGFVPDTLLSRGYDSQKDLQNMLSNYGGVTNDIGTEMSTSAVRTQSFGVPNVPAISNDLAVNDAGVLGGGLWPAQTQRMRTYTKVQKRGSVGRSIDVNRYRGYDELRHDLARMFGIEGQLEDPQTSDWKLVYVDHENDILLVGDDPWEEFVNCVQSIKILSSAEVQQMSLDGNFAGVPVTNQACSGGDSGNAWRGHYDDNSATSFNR
UniProt Q9XFM0, sequence (whole entry, looked up): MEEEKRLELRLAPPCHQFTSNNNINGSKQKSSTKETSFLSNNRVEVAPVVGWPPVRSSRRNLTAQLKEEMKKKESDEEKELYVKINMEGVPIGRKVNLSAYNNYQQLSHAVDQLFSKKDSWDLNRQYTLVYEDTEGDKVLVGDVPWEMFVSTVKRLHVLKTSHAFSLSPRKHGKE
UniProt Q8RYC6, sequence (whole entry, looked up): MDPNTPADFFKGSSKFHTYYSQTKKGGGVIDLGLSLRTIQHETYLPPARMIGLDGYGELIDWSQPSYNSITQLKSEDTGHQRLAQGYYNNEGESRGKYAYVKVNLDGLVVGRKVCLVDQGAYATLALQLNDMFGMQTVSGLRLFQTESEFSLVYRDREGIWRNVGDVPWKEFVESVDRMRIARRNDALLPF
UniProt P11362, sequence (whole entry, looked up): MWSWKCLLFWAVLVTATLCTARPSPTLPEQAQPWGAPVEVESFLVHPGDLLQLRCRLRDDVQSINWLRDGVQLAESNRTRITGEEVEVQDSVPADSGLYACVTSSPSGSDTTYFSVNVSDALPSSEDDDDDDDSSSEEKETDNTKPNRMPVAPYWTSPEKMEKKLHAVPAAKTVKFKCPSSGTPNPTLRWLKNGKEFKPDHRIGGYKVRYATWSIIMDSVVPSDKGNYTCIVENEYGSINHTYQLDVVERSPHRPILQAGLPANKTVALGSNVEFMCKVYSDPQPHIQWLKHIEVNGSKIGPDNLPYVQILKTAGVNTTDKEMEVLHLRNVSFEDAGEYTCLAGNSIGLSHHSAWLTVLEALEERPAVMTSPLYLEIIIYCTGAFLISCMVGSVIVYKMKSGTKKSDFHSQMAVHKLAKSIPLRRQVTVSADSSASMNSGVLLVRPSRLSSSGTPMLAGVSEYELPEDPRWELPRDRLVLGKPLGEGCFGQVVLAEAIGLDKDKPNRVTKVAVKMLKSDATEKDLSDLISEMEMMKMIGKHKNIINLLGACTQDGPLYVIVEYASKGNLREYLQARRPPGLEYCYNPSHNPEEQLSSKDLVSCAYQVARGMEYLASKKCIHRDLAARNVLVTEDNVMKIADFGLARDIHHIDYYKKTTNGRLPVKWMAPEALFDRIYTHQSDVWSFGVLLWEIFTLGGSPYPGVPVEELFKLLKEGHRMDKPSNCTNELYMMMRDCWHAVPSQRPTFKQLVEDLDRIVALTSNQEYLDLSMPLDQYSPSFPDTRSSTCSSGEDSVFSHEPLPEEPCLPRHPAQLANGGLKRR
UniProt Q04912, sequence (whole entry, looked up): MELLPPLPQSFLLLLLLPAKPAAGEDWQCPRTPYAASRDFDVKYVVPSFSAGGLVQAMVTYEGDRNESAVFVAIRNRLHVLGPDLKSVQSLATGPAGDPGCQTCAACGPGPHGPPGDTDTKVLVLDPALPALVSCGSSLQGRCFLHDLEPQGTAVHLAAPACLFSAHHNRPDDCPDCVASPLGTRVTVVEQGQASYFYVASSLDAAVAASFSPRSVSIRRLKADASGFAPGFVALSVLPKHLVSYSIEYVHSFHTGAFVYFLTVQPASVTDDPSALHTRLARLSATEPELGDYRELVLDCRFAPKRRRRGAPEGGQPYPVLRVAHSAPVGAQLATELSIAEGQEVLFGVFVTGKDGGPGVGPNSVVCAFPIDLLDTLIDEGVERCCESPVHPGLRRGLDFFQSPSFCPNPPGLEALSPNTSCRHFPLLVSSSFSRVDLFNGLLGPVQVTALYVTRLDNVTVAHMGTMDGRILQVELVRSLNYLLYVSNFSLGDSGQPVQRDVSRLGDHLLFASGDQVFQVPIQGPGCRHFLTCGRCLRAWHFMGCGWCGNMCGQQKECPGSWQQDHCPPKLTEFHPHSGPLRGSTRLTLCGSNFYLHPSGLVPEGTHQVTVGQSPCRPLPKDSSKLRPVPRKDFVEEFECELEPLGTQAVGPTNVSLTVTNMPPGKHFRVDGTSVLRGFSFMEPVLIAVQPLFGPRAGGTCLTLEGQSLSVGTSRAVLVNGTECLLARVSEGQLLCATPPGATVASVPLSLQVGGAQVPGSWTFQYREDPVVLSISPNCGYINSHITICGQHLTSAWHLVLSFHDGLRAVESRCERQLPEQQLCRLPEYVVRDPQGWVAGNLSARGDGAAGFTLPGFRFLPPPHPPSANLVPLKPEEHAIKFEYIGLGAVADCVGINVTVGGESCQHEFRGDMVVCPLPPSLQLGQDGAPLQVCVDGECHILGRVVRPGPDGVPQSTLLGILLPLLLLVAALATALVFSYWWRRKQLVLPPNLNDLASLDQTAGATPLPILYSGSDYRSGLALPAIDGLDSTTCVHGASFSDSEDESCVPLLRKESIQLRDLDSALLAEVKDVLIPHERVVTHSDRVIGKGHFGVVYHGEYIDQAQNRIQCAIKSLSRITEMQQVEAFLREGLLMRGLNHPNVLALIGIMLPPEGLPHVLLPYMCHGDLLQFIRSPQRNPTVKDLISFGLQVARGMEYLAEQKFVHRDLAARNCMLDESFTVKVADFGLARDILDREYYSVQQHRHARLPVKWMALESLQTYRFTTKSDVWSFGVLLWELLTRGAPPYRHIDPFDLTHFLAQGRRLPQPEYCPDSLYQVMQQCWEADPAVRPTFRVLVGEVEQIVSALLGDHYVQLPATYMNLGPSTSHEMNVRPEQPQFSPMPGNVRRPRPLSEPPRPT
UniProt Q93WC4, sequence (whole entry, looked up): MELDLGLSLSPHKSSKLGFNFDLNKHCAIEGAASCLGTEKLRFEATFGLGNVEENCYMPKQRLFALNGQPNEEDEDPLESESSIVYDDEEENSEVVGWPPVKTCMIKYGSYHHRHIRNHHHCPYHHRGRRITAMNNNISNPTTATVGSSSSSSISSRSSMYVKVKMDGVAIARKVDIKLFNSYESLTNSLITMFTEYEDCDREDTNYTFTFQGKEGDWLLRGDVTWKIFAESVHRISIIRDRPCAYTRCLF
UniProt Q8H174, sequence (whole entry, looked up): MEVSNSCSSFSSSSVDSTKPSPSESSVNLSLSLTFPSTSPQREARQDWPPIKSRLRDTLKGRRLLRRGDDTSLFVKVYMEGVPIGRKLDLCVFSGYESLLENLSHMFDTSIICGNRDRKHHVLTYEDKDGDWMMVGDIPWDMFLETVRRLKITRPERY
UniProt Q8WTQ7, sequence (whole entry, looked up): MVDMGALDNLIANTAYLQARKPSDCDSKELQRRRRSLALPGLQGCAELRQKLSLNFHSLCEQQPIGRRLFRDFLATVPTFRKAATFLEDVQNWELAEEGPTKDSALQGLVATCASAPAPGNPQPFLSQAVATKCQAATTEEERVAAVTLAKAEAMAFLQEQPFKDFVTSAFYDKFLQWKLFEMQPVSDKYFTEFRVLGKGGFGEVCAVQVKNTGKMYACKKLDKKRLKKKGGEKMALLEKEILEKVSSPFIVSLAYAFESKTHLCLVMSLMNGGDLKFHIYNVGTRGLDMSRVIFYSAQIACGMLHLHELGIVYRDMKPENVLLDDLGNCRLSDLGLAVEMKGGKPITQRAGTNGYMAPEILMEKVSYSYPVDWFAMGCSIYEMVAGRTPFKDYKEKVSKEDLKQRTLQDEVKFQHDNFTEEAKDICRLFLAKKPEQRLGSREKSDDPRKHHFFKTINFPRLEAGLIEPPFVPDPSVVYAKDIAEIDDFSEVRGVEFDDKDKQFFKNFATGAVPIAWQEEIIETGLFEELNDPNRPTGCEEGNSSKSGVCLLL

Set 1
Structure (SMILES): N/C(=N\[N+](=O)[O-])N/N=C\c1ccc(-c2cccc([N+](=O)[O-])c2)o1
Effect on: enzyme activity
Action: inhibitor
Tested at: 0.5 µM
Relative to: control
| target | remaining activity |
| --- | --- |
| GRK7 (Homo sapiens, UniProt Q8WTQ7) | 97% |
| MST1R (Homo sapiens, UniProt Q04912) | 97.6% |
| FGFR1 (Homo sapiens, UniProt P11362) | 97.6% |
| NEK6 (Homo sapiens, UniProt Q9HC98) | 93.4% |

Set 2
Molecule: IAA27 (Arabidopsis thaliana, UniProt Q9ZSY8)
UniProt Q9ZSY8, sequence (whole entry, looked up): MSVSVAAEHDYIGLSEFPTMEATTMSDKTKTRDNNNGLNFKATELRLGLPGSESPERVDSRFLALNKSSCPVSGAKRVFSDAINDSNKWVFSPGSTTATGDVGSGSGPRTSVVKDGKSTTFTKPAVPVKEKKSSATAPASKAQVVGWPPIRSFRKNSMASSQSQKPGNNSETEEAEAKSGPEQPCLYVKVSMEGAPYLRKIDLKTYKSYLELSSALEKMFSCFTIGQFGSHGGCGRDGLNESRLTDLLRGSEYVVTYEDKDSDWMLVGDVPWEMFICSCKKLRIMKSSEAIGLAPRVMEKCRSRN
Method: two-hybrid
Direction: higher = firmer interaction
| partner | conditions | how to read | positive tests |
| --- | --- | --- | --- |
| ARF17 (Arabidopsis thaliana, UniProt Q84WU6) | weak activation fusion | relative to: out of 1 tests | 0 |
| IAA34 (Arabidopsis thaliana, UniProt Q9C5X0) |  | relative to: out of 4 tests | 4 |
| ARF7 1030-1164 (Arabidopsis thaliana, UniProt P93022) |  | relative to: out of 4 tests | 4 |
| ARF9 519-638 (Arabidopsis thaliana, UniProt Q9XED8) | weak activation fusion | relative to: out of 2 tests | 2 |
| IAA32 (Arabidopsis thaliana, UniProt Q8RYC6) |  | relative to: out of 4 tests | 1 |
| IAA29 (Arabidopsis thaliana, UniProt Q93WC4) |  | relative to: out of 4 tests | 1 |
| IAA28 (Arabidopsis thaliana, UniProt Q9XFM0) |  | relative to: out of 2 tests | 2 |
| IAA31 (Arabidopsis thaliana, UniProt Q8H174) |  | relative to: out of 2 tests | 2 |

Set 3
Target: JUN, bZIP domain (human)
Method: DHFR protein complementation
Matrix: yeast
Setting: single substitutions, most at no-binding floor
Relative to: wild-type JUN-FOS pair
Direction: higher = stronger binding
Starting sequence: JUN, bZIP domain (human); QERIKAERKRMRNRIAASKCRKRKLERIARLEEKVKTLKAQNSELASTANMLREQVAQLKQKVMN; partner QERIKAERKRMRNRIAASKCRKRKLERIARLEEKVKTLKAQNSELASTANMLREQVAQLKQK
| Change | binding fitness [natural log] |
| --- | --- |
| A40M | -0.355 |
| L31K | -1.19 |
| I28E | -0.391 |
| T48Q | -0.145 |
| K36Y | -0.689 |
| T37G | -0.388 |
| A57Q | -0.291 |
| M51C | -0.343 |

Set 4
Target: CCNB3, cyclin fold, Cln2 fusion (human)
Method: yeast growth competition, sequencing
Matrix: yeast
Setting: strong parent motif
Relative to: not given
Direction: higher = stronger binding
Starting sequence: viral docking peptide; YKVKRRLVFGADD
| Change | normalised enrichment score |
| --- | --- |
| K4E | -0.163 |
| V8P | 0.307 |
| V3H | -0.0587 |
| L7W | 0.542 |
| V3G | -0.0566 |
| F9Y | 1.09 |
| K4S | 0.986 |
| K4R | 3.74 |
| R6L | 0.813 |
| L7Q | -0.115 |
| R5M | 0.277 |
| R5G | -0.0521 |
| K2Q | 2.39 |
| A11D | 2.65 |
| F9W | 0.796 |
| K4I | 0.48 |

Excerpt of the above (set 2):
| partner | conditions | how to read | positive tests |
| --- | --- | --- | --- |
| ARF7 1030-1164 (Arabidopsis thaliana, UniProt P93022) |  | relative to: out of 4 tests | 4 |
| ARF9 519-638 (Arabidopsis thaliana, UniProt Q9XED8) | weak activation fusion | relative to: out of 2 tests | 2 |
| IAA32 (Arabidopsis thaliana, UniProt Q8RYC6) |  | relative to: out of 4 tests | 1 |
| IAA29 (Arabidopsis thaliana, UniProt Q93WC4) |  | relative to: out of 4 tests | 1 |
| IAA28 (Arabidopsis thaliana, UniProt Q9XFM0) |  | relative to: out of 2 tests | 2 |
| IAA31 (Arabidopsis thaliana, UniProt Q8H174) |  | relative to: out of 2 tests | 2 |
